Literature values that unrelated publications cite.
Compare with care: the assays were run in different laboratories. Numbers after ± are the reported error. Converted amounts (≈) assume the structure as drawn.
ACHE: Acetylcholinesterase (ACHE, Homo sapiens, UniProt P22303)
BCHE: Cholinesterase (BCHE, Homo sapiens, UniProt P06276)

Structure (SMILES) | target or system | test | system | setting | measurement | value
CNC(=O)[C@@]12C[C@@H]1[C@@H](n1cnc3c(NC(C4CC4)C4CC4)nc(Cl)nc31)[C@H](O)[C@@H]2O | 5-hydroxytryptamine receptor 2B (HTR2B, Homo sapiens, UniProt P41595) | binding |  | added: [3H]LSD | Ki | 23 nM
CC(=O)OC12COC1CC(O)C1(C)C(=O)C(OC(=O)N(C)C)C3=C(C)C(OC(=O)C(O)C(C=C(C)C)NC(=O)OC(C)(C)C)CC(O)(C(OC(=O)c4cccc(OC(F)F)c4)C21)C3(C)C (stereo not shown) | MCF7 | cytotoxicity |  |  | IC50 | 0.56 nM
CC[C@H](C)[C@H](NC(=O)[C@H](CC(C)C)NC(=O)[C@H](CCCNC(=N)N)NC(=O)CNC(=O)CNC(=O)[C@H](CCCCN)NC(=O)[C@H](CCCNC(=N)N)NC(=O)[C@H](CC(C)C)NC(=O)[C@H](CC(C)C)NC(=O)[C@H](CCCNC(=N)N)NC(=O)[C@@H](NC(=O)[C@H](CC(C)C)NC(=O)[C@@H](N)CO)[C@@H](C)O)C(=O)NCC(=O)N[C@@H](Cc1c[nH]c2ccccc12)C(=O)N[C@@H](CCCNC(=N)N)C(=O)N[C@@H](Cc1c[nH]c2ccccc12)C(=O)N[C@@H](CCC(=O)O)C(=O)N[C@@H](CCCCN)C(=O)N[C@H](C(=O)N[C@@H](CCCNC(=N)N)C(=O)N[C@@H](CC(N)=O)C(=O)N[C@@H](Cc1c[nH]c2ccccc12)C(=O)N[C@H](C(=O)N[C@@H](CCCNC(=N)N)C(=O)N[C@@H](CCCNC(=N)N)C(=O)N[C@H](C(=O)N[C@H](C(=O)N[C@@H](CCC(=O)O)C(=O)N[C@@H](CCCCN)C(=O)N[C@@H](CCCNC(=N)N)C(=O)N[C@@H](CCCCN)C(=O)N1CCC[C@H]1C(=O)N[C@@H](CC(N)=O)C(=O)N[C@@H](CCCCN)C(=O)O)[C@@H](C)CC)[C@@H](C)CC)[C@@H](C)CC)[C@@H](C)O | Pseudomonas aeruginosa |  |  |  | MIC | 0.5 µM (≈ 2.21 µg/mL)
COc1ccc(/C=C/C(=O)OC(=O)/C=C/c2ccc(OC)cc2OC)c(OC)c1 | ACHE | enzyme activity, inhibitor |  |  | Ki | 8300 ± 940 nM
CCCCCCCCCC(=O)CC(=O)NC1CCCCC1=O (stereo not shown) | Transcriptional activator protein LasR (lasR, Pseudomonas aeruginosa, UniProt P25084) | lasI-gfp(LVA) reporter, inhibitor | PAO-JP2 | 100 µM | inhibition | 40%
O=C(Cn1cc(COc2ccc3ccc(=O)oc3c2)nn1)Nc1ccccc1Cl | BCHE | enzyme activity, inhibitor |  |  | Ki | 33.1 nM
OC[C@@]12C[C@@H]1[C@@H](n1cnc3c(N[C@@H](C4CCC4)C4CC4)nc(Cl)nc31)[C@H](O)[C@@H]2O | Adenosine receptor A2a (ADORA2A, Homo sapiens, UniProt P29274) | binding |  | added: [3H]CGS21680 | Ki | 3940 ± 876 nM
CCCCCCCCO[C@H]1O[C@H](COS(=O)(=O)O)[C@@H](OS(=O)(=O)O)[C@H](OS(=O)(=O)O)[C@@H]1O[C@H]1O[C@H](COS(=O)(=O)O)[C@@H](OS(=O)(=O)O)[C@H](O[C@H]2O[C@H](COS(=O)(=O)O)[C@@H](OS(=O)(=O)O)[C@H](O[C@H]3O[C@H](COS(=O)(=O)O)[C@@H](OS(=O)(=O)O)[C@H](OS(=O)(=O)O)[C@@H]3OS(=O)(=O)O)[C@@H]2OS(=O)(=O)O)[C@@H]1OS(=O)(=O)O | heparanase |  |  |  | Ki | 5.8 nM
CC(C)[C@H](Nc1nc(Cl)nc2c1ncn2[C@H]1[C@H](O)[C@H](O)[C@]2(CO)C[C@H]12)C1CC1 | 5-hydroxytryptamine receptor 2C (HTR2C, Homo sapiens, UniProt P28335) | binding |  | added: [3H]mesulergine | Ki | 672 nM
O=C(Cn1cc(CN2C(=O)C(=O)c3cc(F)ccc32)nn1)NCc1ccccc1Cl | ACHE |  |  |  | Ki | 155 nM
C=CCN1C[C@H](C)N([C@@H](c2cccc(O)c2)c2cccc(C(=O)N(C)c3cccc(F)c3)c2)C[C@H]1C | mu opioid receptor rat |  |  |  | Ki | 0.18 to 7.56 nM
COc1cc2c(cc1O)C(CCc1ccc(Cl)cc1)N(C)CC2 (stereo not shown) | Glutamate NMDA receptor; Grin1/Grin2b (Grin1/Grin2b, Rattus norvegicus, UniProt P35439+Q00960) | binding |  |  | Ki | 20 ± 3 nM
CC[C@H](C)[C@H](NC(=O)[C@H](CCCN)NC(=O)[C@H](CCCNC(=N)N)NC(=O)[C@@H]1CCCN1C(=O)[C@@H]1CCCN1C(=O)[C@H](CCCNC(=N)N)NC(=O)[C@@H]1CCCN1C(=O)[C@H](CCCNC(=N)N)NC(=O)[C@@H]1CCCN1C(=O)[C@H](CC(C)C)NC(=O)[C@H](Cc1ccc(O)cc1)NC(=O)[C@@H]1CCCN1C(=O)[C@@H]1CCCN1C(=O)[C@H](CCCCN)NC(=O)[C@H](CC(=O)O)NC(=O)[C@@H](N)C(C)C)C(=O)N[C@@H](Cc1ccc(O)cc1)C(=O)N[C@@H](CC(N)=O)C(=O)N[C@@H](CCCN)C(N)=O |  | sandwich ELISA | plasma | ip, 5 mg/kg, 10 min | plasma concentration | 5.17 mg/L
O=C(Cc1ccccc1Cl)Cn1cc(COC2=CC(=O)c3ccccc3C2=O)nn1 | ACHE | inhibitor |  |  | Ki | 10.2 nM
COC(=O)C1C2CCC(CC1c1ccc(Cl)c(Cl)c1)S2 (stereo not shown) | dopamine transporter | binding |  |  | Ki | 5.7 nM
C[C@@H]1CN([C@@H](c2cccc(O)c2)c2cccc(C(=O)N(C)c3cccc(F)c3)c2)[C@@H](C)CN1Cc1ccccc1 | rat delta opioid receptor | binding |  |  | Ki | 0.4 nM
CCOC(=O)[C@@]12C[C@@H]1[C@@H](n1cnc3c(NC(C4CC4)C4CC4)nc(Cl)nc31)[C@H](O)[C@@H]2O | Adenosine receptor A1 (ADORA1, Homo sapiens, UniProt P30542) | binding |  | added: [3H]R-PIA | Ki | 360 ± 74 nM
CCC(=O)OC1C(=O)C2(C)C(O)CC3OCC3(OC(C)=O)C2C(OC(=O)c2cccc(OC(F)(F)F)c2)C2(O)CC(OC(=O)C(O)C(C=C(C)C)NC(=O)OC(C)(C)C)C(C)=C1C2(C)C (stereo not shown) | HCT-116 | cytotoxicity |  |  | IC50 | 1.68 nM
C=CCN1C[C@H](C)N([C@@H](c2ccccc2)c2ccc(C(=O)N(CC)CC)cc2)C[C@H]1C | rat delta opioid receptor | binding |  |  | Ki | 0.5 nM
COC(=O)C1C(c2ccc(Cl)c(Cl)c2)CC2CCC1[S+]2[O-] (stereo not shown) | dopamine transporter | binding |  |  | Ki | 5.3 nM
O=C(Cn1cc(COc2ccc3ccc(=O)oc3c2)nn1)Nc1ccc(F)cc1 | BCHE |  |  |  | Ki | 33.1 nM
CC[C@H](C)[C@H](NC(=O)[C@H](CCCCN)NC(=O)[C@H](CCC(N)=O)NC(=O)[C@H](C)NC(=O)[C@H](Cc1ccc(O)cc1)NC(=O)[C@H](CCC(=O)O)NC(=O)[C@H](CCCCN)NC(=O)[C@H](C)NC(=O)[C@H](CC(C)C)NC(=O)[C@H](CCCNC(=N)N)NC(=O)[C@H](CC(C)C)NC(=O)CNC(=O)[C@H](CCCCN)NC(=O)[C@H](C)NC(=O)[C@H](CCCNC(=N)N)NC(=O)[C@H](CC(C)C)NC(=O)[C@H](CCCCN)NC(=O)[C@H](CCC(N)=O)NC(=O)[C@H](C)NC(=O)[C@H](CC(C)C)NC(=O)[C@H](CCCCN)NC(=O)[C@H](CO)NC(=O)[C@H](CCCCN)NC(=O)[C@@H](N)Cc1c[nH]c2ccccc12)C(=O)N[C@@H](CC(C)C)C(=O)N[C@@H](CC(N)=O)C(=O)O | Staphylococcus aureus |  |  |  | MIC | 8 µM (≈ 24.4 µg/mL)

Excerpt of the above:
Structure (SMILES) | target or system | test | system | setting | measurement | value
C=CCN1C[C@H](C)N([C@@H](c2cccc(O)c2)c2cccc(C(=O)N(C)c3cccc(F)c3)c2)C[C@H]1C | mu opioid receptor rat |  |  |  | Ki | 0.18 to 7.56 nM
COC(=O)C1C2CCC(CC1c1ccc(Cl)c(Cl)c1)S2 (stereo not shown) | dopamine transporter | binding |  |  | Ki | 5.7 nM
